Results from different studies.
A part holds a random share of what one study measured. Changes are numbered by the printed parent chain.

Set 1
Target: ABI1, truncated, D143A, DHFR fusion (Arabidopsis thaliana)
Method: DHFR PCA, deep sequencing
Matrix: yeast
Notes: methotrexate growth selection, single substitutions
Added: (+)-ABA 0 µM
Reference: wild-type fitted maximum
Reading: higher = stronger binding
Quantity: relative binding score
Parent: PYL1, truncated, DHFR fusion (Arabidopsis thaliana); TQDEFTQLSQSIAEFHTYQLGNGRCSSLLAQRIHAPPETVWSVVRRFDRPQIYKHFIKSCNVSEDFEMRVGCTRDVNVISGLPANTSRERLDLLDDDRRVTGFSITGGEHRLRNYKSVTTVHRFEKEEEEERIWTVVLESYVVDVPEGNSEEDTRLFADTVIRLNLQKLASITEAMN
L169N: -5.22%
E67Y: -3.54%
E131R: 45.3%
A84G: 39.9%
S42T: 4.6%
A170G: -2.88%
H122D: -1.11%
L91D: 1.44%
D65F: -5.89%
L169W: 1.37%
Q19T: 38.2%
R46V: -4.66%
G148R: -0.702%
M68G: -1.97%
L28E: 1.34%
V70K: 9.61%

Set 2
Target: NFE2L3, bZIP domain (human)
Method: DHFR protein complementation
Matrix: yeast
Notes: single substitutions, most at no-binding floor
Reference: wild-type JUN-FOS pair
Reading: higher = stronger binding
Quantity: binding fitness
Parent: JUN, bZIP domain (human); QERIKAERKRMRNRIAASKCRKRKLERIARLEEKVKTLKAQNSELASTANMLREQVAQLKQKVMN; partner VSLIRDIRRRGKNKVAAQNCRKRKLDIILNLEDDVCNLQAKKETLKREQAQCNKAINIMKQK
K36R: -1.37 natural log
Q55S: -1.32 natural log
K34T: -1.45 natural log
T37M: -1.45 natural log
Q41K: -1.27 natural log
N42G: -1.54 natural log
E33T: -1.48 natural log
T37V: -1.5 natural log
I28H: -1.58 natural log
Q55K: -1.57 natural log
R30G: -1.35 natural log
A40R: -1.34 natural log
T48K: -1.36 natural log
M51S: -1.33 natural log
I28N: -1.58 natural log

Set 3
Target: RNA binding protein fox-1 homolog 2, RRM domain, GST-SBP tag (RBFOX2, Homo sapiens, UniProt O43251-10, residues 100-194)
Method: RNA Bind-n-Seq
Molecule type: RNA
Matrix: in vitro
Tested at: 365 nM
Notes: natural RNA segment, single round, ends assumed
Reference: no-protein control
Reading: higher = stronger binding
Quantity: RBNS enrichment (R)
All sequences stand within: GGGAGUUCUACAGUCCGACGAUC … UGGAAUUCUCGGGUGCCAA
Residues (chain): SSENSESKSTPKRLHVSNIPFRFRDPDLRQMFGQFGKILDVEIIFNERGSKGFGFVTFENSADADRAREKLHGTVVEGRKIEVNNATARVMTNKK
AGCAGCGUUAGAGAGUGGGUUUGGUGGGUUGUGGAUAACCAAGAUGGCGUGAAGUAAUGGCAGUAGAAACCCAUGGACUUCUCUUGUUCUUUCUAUCGCUGUGGAUAAGA: 0.826
CCCAGUUGAUGUCCUAUGUAGAGUUAAUUGUAAAACUUGAAGAAUUUCAGACAUAACCAACUUAUAAAUGACCUAUUUCUUCAGGCUAGCUUCUACAACACUGACCUCCA: 0.382
AAAAAGAAAAACAAUGAAAAAAAAUAAAGACACCGCCAUCACCUAUUUAAAUAUCCACUGUGUGUGUCACAAAGUUGUUCUUUUGAGUGCAAUAAAGAUAGCUUAACACA: 0.93
AAAUCAUUAAGGAUGUAAAAGCCAUGCUUGCCUAUUUGCUGUAUACAUGUAAUGAAAUUGUAGAUAAAGUGUAGUGCAUUGAAACAAAUGAACAAAAAGUAGAUACUUUU: 3.57
UUUUAGCCCCAAAUCUCUCAUAUUCGCUAGUGUUUAAAAGGCUAAGAAUAGUGGGGCCCAGCCGAUGUGGUAGGUGAUAAAGAGGCAUCUUUUCUAGAGACACAUUGGAC: 0.241
CGAGCCAUUCCCUGGAGACCCUGGGUCUACCCCAGGUGGUCGUCAUCUGGGCCAUUUGCCUUACUUCUCUGGAGCAUACCCACCCUCAGUUACGUGCCAGACCUGGACCG: 0.324
UAUGUGACAACUGCCAAAAAAGUAUUUUUAAGAAUUUAAGCGAAAUAAACAGUUACUCUUUGGUAAAGCCUAGUUGUAUGCUUACAUUUUUAAAUUAUACUCUCAUUGUA: 0.438
CCAUGUUGGCCAGGCUGGUCUCGAACUCCUGACCUCAGGUGAUCUGCCCACCCCAGCCUCCCAAAAUGCUGGGAUUACAGGCGUGAGCCACGGCACGCAGCCAGCAAGUU: 0.323
CCAGAGGAUUACCUUAAGAGUCUCUGCAUUAAACUAGAAAAGUUGCACCUAGAAGGGACAGAGGGUGGGGCUACCUGCUAUCAGGCAUGAACAUGUGAAUUGCUGGUUAG: 8.04
UCCUCCCACCUGCCUUCCUCCAUACAAACUAACAGUCUCAUGGGGGGAAGAAAGCAAGGGACAAAGAACUGCAAGGGGCCAAAGCCAAAGAUCUAUCCGAGUGCUUCCUU: 0.333
CCAUAUUGACCUUAGUCUUCUUGACUAAAAGGCCAGCUGGCACCUCUGUCUCAUGUUCGUGCAGAUUAUUACAGACACCUCUUUCCUUUAGCCAGAGAAUGGUUCAAAUG: 0.226
ACAAAGGUGGUAAACCUGUAGAUUGGGCCUUAAUUAGCAUUGUACUCUAAUCAAAGGACUCUUUCUAAACCAUAUUUAUAGCUUUCUUAACCUACACAUAGUCUAUACAU: 0.455

Set 4
Target: Fragile X messenger ribonucleoprotein 1, C-terminal low-complexity region (Fmr1, Mus musculus, UniProt P35922)
Method: RNA Bind-n-Seq
Molecule type: RNA
Matrix: in vitro
Tested at: 200 nM
Notes: whole 134-nt RNA, ends assumed
Added: 150 mM KCl
Reference: input library
Reading: higher = stronger binding
Quantity: log2 enrichment
All sequences stand within: GGGAGUUCUACAGUCCGACGAUC … UGGAAUUCUCGGGUGUCAAGG
CAAGUCCUGUGCUACACAUCGUAUGUACCGAAUCGGGAAAGGGUGGGUUUUUGGGAAAGUAUUAUGUUACGCCGUUCGGAUCUGCACUUC: 1.07
UCAAGUCCUGUGCUACACAUCGUAUGUACCGAAUCGGGGUUUGGUUUGGUUUGGGAAAGUAUUAUGUUACGCCGUUCGGAUCUGCACUUC: -0.142
AAGUCCUGUGCUACACAUCGUAUGUACCGAAUCGGGUGGGUUUGGGUUUUUUUGGGAAAGUAUUAUGUUACGCCGUUCGGAUCUGCACUU: 0.874
UCCUCAAGUCCUGUGCUACACAUCGUAUGUACCGAAUCGGGUGGGUGGUGGAAAGUAUUAUGUUACGCCGUUCGGAUCUGCACUUCCAGC: 0.192
GUCCUGUGCUACACAUCGUAUGUACCGAAUCGGGUUUUUGGGUUUUUGGUUUUUGGGGAAAGUAUUAUGUUACGCCGUUCGGAUCUGCAC: -0.157
CCUCAAGUCCUGUGCUACACAUCGUAUGUACCGAAUCGGGGUGGUGGUGGGGAAAGUAUUAUGUUACGCCGUUCGGAUCUGCACUUCCAG: 0.917
GCAGGAAGUAAAAACAAAUGGAAAUGCUUCGGAUAGUGGCAGGGUUGGGGGUUGCUAAGGAAAGGGUGGGAUGGGAGUGGGUAAAGAGUU: 0.124
UCCUGUGCUACACAUCGUAUGUACCGAAUCGGGGAGGGGAAAAAAAGGGGUUUUUGGGGAAAGUAUUAUGUUACGCCGUUCGGAUCUGCA: 0.683
UUCAGUAAAAUGGCAGAAGAGAAACUGACCCACAAAAUGGAAGCUAAUAAAGAGAACCGAGAGGCACAAAUGGCUGCCAAACUGGAACGU: -0.793

Set 5
Target: Histone acetyltransferase KAT6A, winged helix 2, GST fusion (KAT6A, Homo sapiens, UniProt Q92794, residues 85-181)
Method: protein binding microarray
Molecule type: double-stranded DNA, one strand shown
Matrix: in vitro
Tested at: not given
Notes: 8-mer, flanks averaged, mean of 2 arrays, mostly near background
Reference: not given
Reading: higher = stronger binding
Quantity: E-score
Residues (chain): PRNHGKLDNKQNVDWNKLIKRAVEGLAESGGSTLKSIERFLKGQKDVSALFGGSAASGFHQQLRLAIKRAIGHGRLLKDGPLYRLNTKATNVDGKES
ACCTCCCG: 0.0227
AACCTTGG: -0.126
AGCCGCTG: 0.0692
AGGGTGTC: 0.0809
CCCCACCC: 0.145
ACTCGCAT: 0.0413
AAATACTT: -0.0511
ATAATGGG: -0.0558
AATATGGA: -0.12
CCGTCTCG: 0.193
CGAGTAAC: 0.0755
ACCCTCCA: 0.0146
AGTGCCAT: -0.181
GTCCGCAC: 0.213
GGAAGTTA: 0.112
CCGAGTTC: 0.164
ATCCACTG: -0.0604

Set 6
Target: CCND1, cyclin fold, Cln2 fusion (human)
Method: yeast growth competition, sequencing
Matrix: yeast
Notes: weak parent motif
Reference: not given
Reading: higher = stronger binding
Quantity: normalised enrichment score
Parent: SAMHD1 docking peptide (human); ASKSRVQLFKDDP
ASSSRVQLFKDDP [K3S]: 0.93
ASKSPVQLFKDDP [R5P]: 0.492
ASKSRVQLFADDP [K10A]: 0.451
ASKSRVQLAKDDP [F9A]: -0.0864
ASKSHVQLFKDDP [R5H]: 0.509
ATKSRVQLFKDDP [S2T]: 0.379
ASKSRVQLFKDHP [D12H]: 0.148
ASKSWVQLFKDDP [R5W]: 0.276
ASKSRVSLFKDDP [Q7S]: -0.0756
ASYSRVQLFKDDP [K3Y]: 0.257
ASKQRVQLFKDDP [S4Q]: 0.0333
ASKSRVQLFKDRP [D12R]: 0.0891
ASKSRVQLFDDDP [K10D]: 0.44
ASKSRVQDFKDDP [L8D]: 0.183
ASNSRVQLFKDDP [K3N]: 0.565
AKKSRVQLFKDDP [S2K]: 0.113

Set 7
Target: Interferon regulatory factor 5, full length, phosphomimetic (IRF5, Homo sapiens, UniProt Q13568-2, residues 1-514, S451D/S453D/S456D/S462D)
Method: protein-binding microarray
Molecule type: double-stranded DNA, one strand shown
Matrix: in vitro
Tested at: 940 nM top
Notes: 60-bp whole probe
Added: salmon DNA 0.4 mg/ml
Reference: random background probes
Reading: higher = stronger binding
Quantity: fitted relative affinity
All sequences stand within: GCCTAGCAC … GTCTTGATTCGCTTGACGCTGCTG
GACGGGTTCGGGACTGGGGACGTGCTA: -0.254 z-score
CCTTCTCTAACCTCTCTAATAGTGCTA: 1.29 z-score
TTAGATATCGGGTTTCGTTTAGTGCTA: 3.61 z-score
CGCTCCCTTTATTCCACATTGTGCTAG: 1.14 z-score
TTAGGTTTCGGGTTACGGTTAGTGCTA: 11 z-score
GACGAACTGAGTTTCGAGATGTGCTAG: 3.28 z-score
TTAGGACTGGGGTATCGTTTAGTGCTA: 1.29 z-score
TTAGGTTCCGGTTTAGGTTAGTGCTAG: 4.57 z-score
ATAGGTTTCGGTCTCGGTTAGTGCTAG: 14.3 z-score
GACGGTATCGACTTCCGGGACGTGCTA: 4.8 z-score
TTAAAACTGGGGACTGGATTAGTGCTA: -0.0386 z-score
